Assay results gathered from unrelated publications.
Compare with care: the assays were run in different laboratories. “And” joins repeats or separate records; there may be more than shown. ± gives the spread as reported.
UniProt Q99873, sequence (whole entry, looked up): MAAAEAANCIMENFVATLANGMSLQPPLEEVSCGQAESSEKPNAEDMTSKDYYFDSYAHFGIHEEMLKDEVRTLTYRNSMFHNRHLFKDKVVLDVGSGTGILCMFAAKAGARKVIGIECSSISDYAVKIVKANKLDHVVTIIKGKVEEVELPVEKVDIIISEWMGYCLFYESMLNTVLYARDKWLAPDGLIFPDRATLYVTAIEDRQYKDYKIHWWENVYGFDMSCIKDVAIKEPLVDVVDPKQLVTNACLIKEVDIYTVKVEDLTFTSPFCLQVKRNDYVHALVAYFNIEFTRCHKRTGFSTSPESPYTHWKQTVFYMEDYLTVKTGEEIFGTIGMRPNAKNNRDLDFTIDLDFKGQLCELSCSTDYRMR
UniProt P01024, sequence (whole entry, unmodified, looked up): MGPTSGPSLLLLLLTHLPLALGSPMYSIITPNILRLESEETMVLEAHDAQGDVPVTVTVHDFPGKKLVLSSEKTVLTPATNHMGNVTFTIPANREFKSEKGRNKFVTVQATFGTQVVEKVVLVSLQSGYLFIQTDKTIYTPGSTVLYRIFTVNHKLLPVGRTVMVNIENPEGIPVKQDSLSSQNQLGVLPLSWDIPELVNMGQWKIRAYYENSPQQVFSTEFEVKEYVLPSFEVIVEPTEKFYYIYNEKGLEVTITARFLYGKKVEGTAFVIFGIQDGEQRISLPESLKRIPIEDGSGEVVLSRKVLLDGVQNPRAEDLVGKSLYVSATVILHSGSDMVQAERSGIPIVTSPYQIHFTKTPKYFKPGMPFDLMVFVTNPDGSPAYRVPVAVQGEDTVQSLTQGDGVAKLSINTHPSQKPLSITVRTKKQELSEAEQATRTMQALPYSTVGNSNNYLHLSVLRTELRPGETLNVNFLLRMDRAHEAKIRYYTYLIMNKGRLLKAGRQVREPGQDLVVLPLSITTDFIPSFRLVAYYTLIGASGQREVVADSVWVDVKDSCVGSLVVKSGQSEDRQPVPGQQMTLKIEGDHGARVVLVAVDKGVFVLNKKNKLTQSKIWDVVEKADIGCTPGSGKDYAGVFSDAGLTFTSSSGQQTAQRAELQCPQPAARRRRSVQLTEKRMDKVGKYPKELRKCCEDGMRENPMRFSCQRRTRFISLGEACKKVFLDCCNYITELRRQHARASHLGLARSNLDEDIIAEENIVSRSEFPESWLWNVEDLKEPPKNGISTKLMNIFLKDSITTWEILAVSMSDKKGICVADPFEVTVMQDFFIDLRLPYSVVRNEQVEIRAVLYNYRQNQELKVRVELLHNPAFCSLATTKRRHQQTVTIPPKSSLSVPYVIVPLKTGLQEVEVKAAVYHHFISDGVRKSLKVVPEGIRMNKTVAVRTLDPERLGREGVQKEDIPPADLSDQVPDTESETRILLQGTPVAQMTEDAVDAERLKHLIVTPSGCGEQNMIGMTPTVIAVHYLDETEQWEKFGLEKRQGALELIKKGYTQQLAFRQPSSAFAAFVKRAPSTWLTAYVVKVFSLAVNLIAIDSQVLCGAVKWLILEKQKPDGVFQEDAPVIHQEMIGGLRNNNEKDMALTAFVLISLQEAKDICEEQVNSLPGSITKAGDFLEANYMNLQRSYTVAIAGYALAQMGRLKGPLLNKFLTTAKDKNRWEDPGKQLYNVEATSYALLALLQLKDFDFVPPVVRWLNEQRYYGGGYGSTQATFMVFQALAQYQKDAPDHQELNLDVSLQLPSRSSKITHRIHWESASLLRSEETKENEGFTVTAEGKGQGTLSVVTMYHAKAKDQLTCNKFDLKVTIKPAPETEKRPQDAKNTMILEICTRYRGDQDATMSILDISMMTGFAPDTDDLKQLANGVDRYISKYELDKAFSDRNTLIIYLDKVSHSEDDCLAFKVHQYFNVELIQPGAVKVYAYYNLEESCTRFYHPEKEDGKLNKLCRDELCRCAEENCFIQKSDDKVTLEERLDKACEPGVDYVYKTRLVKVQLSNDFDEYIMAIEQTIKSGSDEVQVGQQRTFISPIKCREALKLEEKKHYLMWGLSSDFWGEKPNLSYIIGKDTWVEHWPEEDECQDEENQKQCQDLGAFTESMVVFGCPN
UniProt P28062, sequence (whole entry, looked up): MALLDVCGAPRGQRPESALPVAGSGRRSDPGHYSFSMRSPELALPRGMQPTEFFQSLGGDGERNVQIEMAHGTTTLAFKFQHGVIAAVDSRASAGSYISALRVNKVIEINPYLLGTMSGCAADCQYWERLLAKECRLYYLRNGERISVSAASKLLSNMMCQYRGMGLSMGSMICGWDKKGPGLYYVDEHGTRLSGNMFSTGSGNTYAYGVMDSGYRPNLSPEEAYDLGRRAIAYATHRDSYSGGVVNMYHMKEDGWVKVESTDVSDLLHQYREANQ
UniProt P45983, sequence (whole entry, looked up): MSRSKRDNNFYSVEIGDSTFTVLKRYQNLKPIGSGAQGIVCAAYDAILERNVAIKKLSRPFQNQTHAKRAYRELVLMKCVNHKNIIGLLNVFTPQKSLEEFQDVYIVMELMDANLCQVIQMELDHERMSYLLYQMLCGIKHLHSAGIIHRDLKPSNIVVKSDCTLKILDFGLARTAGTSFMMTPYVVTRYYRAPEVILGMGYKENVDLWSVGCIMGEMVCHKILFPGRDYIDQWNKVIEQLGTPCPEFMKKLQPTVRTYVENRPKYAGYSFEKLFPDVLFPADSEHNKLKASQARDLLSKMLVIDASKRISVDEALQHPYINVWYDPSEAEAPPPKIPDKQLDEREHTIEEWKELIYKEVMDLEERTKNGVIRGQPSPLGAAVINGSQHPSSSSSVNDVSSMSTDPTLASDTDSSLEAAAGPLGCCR
UniProt Q14833, sequence (whole entry, looked up): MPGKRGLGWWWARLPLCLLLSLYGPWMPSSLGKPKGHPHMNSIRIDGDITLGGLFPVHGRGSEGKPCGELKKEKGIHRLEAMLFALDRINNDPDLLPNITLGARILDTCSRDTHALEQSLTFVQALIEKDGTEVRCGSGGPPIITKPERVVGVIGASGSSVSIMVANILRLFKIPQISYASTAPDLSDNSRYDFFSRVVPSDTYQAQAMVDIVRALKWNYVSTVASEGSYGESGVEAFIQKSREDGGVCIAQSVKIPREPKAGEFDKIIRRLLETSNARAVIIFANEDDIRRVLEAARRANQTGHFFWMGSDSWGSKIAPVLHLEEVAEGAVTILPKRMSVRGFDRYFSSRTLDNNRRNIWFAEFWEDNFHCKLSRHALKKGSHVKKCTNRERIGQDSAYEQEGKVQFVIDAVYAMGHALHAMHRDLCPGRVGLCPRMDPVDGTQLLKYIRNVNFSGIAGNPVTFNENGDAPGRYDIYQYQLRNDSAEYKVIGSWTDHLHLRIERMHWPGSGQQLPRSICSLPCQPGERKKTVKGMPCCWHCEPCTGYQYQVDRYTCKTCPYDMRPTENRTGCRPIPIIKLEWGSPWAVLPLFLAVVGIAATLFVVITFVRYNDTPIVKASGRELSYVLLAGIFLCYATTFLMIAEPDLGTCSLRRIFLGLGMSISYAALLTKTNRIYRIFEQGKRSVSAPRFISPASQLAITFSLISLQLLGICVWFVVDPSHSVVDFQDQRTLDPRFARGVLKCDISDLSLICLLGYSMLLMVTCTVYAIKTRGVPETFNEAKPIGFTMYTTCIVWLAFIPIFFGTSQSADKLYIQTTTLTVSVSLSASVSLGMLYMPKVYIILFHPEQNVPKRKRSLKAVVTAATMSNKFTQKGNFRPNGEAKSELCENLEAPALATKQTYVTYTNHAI
UniProt Q9BV86, sequence (whole entry, looked up): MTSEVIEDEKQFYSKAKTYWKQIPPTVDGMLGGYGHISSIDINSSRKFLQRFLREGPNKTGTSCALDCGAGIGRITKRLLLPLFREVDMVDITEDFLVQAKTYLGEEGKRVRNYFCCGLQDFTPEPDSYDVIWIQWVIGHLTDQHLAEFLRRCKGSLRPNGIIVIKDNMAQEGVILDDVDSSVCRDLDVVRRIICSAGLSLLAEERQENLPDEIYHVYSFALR
UniProt Q9Y294, sequence (whole entry, looked up): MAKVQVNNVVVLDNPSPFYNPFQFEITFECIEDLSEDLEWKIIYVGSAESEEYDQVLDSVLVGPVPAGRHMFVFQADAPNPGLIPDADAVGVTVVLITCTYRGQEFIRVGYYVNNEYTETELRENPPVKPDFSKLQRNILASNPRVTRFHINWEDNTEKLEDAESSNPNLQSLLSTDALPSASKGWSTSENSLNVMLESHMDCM
UniProt P20618, sequence (whole entry, looked up): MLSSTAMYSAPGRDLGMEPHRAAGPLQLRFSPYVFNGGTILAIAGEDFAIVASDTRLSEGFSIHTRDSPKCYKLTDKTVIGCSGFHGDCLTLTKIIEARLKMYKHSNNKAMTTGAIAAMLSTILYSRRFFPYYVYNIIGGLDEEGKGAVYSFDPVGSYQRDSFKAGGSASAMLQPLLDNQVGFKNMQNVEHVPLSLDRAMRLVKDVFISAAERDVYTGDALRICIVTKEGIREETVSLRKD

| SMILES | target | test | test system | setting | quantity | value |
| --- | --- | --- | --- | --- | --- | --- |
| O=C(Cc1ccccc1O)N[C@@H](Cc1cn(CCNC(=O)c2ccc(S[C@@H]3O[C@H](CO)[C@H](O)[C@H](O)[C@H]3O)cc2)nn1)C(=O)NCCO | lecA (Pseudomonas aeruginosa, UniProt Q05097) | binding, isothermal titration calorimetry |  | 25 °C | −TΔS | 2.916 ± 0.0239 kcal/mol |
| CC[C@H](C)[C@H](NC(=O)[C@H](CCCNC(=N)N)NC(=O)[C@H](CCCCN)NC(=O)[C@@H]1CCCN1C(=O)[C@H](CO)n1cc(CN(CC[C@H](N)C(=O)O)C[C@H]2O[C@@H](n3cnc4c(N)ncnc43)[C@H](O)[C@@H]2O)nn1)C(=O)N[C@@H](C)C(N)=O | N-terminal Xaa-Pro-Lys N-methyltransferase 1 (Homo sapiens, UniProt Q9BV86) | inhibitor, MALDI-MS |  | IC50 and 5 × IC50, 20 min, added: RCC1 peptide | methylation | inhibited |
| O=C(O)c1cnccc1C(F)(F)F | Nicotinamidase (Drosophila melanogaster, UniProt Q9VDU7) | GDH-coupled |  | 100 µM | enzyme activity | no effect |
| COC(=O)[C@@]1(C)C=C(C(=O)Nc2cccc(C(=O)Nc3ccc(Nc4nccc(-c5cccnc5)n4)c(C)c3)c2)C(=O)CC1 | MAPK8 (Homo sapiens, UniProt P45983) | binding, SPR |  | 15, 40, 70 nM, parallel kinetic model | k3 | 0.0245 s⁻¹ |
| NC(=O)CN1C(=O)C(O)(CC(=O)c2cccc(N)c2)c2ccccc21 (stereo not shown) | uncharacterized protein (Leishmania donovani, UniProt A0A3Q8IA09) | competitive ITC |  | added: aspartate 60 µM | TΔS | -2.09 kcal/mol |
| CC[C@H](C)[C@H](NC(=O)[C@H](CCCNC(=N)N)NC(=O)[C@H](CCCNC(=N)N)NC(=O)[C@H](C)NC(=O)[C@H](CC(C)C)NC(=O)[C@H](CCCNC(=N)N)NC(=O)[C@H](C)NC(=O)[C@H](Cc1c[nH]c2ccccc12)NC(=O)[C@H](CCCCN)NC(=O)[C@H](CCC(=O)O)NC(C)=O)C(=O)N[C@@H](C)C(=O)NCC(N)=O | Histone chaperone ASF1A (Homo sapiens, UniProt Q9Y294) | isothermal titration calorimetry |  | concentration not given, pH 7.5, 20 °C | binding enthalpy | -10.3 ± 0.6 kcal/mol |
| CC[C@H](C)[C@H](NC(C)=O)C(=O)N[C@H]1CSSC[C@@H](C(=O)N[C@H](C(N)=O)[C@@H](C)O)NC(=O)[C@H](CCCNC(=N)N)NC(=O)[C@H](Cc2c[nH]cn2)NC(=O)[C@H](C)NC(=O)CNC(=O)[C@H](Cc2c[nH]c3ccccc23)NC(=O)[C@H](CC(=O)O)NC(=O)[C@H](CCC(N)=O)NC(=O)[C@H](Cc2ccc(OC)cc2)NC(=O)[C@H](C(C)C)NC1=O | Complement C3 (Homo sapiens, UniProt P01024) | ITC |  | pH 7.4, 25 °C | −TΔS | 8.5 kcal/mol |
| O=C(N[C@@H](Cc1coc2ccccc12)B(O)O)[C@@H]1C[C@H]2CC[C@@H]1O2 | Proteasome component C5/PSMB8 (Homo sapiens, UniProt P20618+P28062) | Western blot | mouse, U266B1 xenograft, tumour | oral, 0.3 to 30 mg/kg single | enzyme activity | decreased |
| CC1(C)CCN(Cc2ccc(C(=O)NC[C@]3(O)CCCN(c4cc(NCc5ccccc5)ncn4)C3)c(O)c2)CC1 | PRMT1 (Homo sapiens, UniProt Q99873) | enzyme activity |  | 10 µM, added: 1 µM SAM | remaining activity | 91% and 88% |
| COc1ccc(S(=O)(=O)N2CCN(CC(=O)Nc3ccc(OC)cc3OC)CC2)cc1 | GRM4 (Homo sapiens, UniProt Q14833) | calcium mobilization, positive allosteric modulator | CHO cells expressing Gqi5 | added: glutamate EC20 | EC50 | inactive |

A few entries again:
| SMILES | target | test | test system | setting | quantity | value |
| --- | --- | --- | --- | --- | --- | --- |
| NC(=O)CN1C(=O)C(O)(CC(=O)c2cccc(N)c2)c2ccccc21 (stereo not shown) | uncharacterized protein (Leishmania donovani, UniProt A0A3Q8IA09) | competitive ITC |  | added: aspartate 60 µM | TΔS | -2.09 kcal/mol |
